Measured values collected from several papers.
Compare with care: the assays were run in different laboratories. Numbers after ± are the reported error. ≈ marks a conversion by molar mass, not a printed value.

CCCc1ccc(C(=O)N2c3ccc(F)cc3[C@@H](Nc3ccccc3)C[C@H]2C)cc1
logit mortality (Aedes albopictus; 1 µM, second-instar larvae): 0.64

CCCCCCCCC1=C(C(CCCCCCC(=O)OC)OC)C1 (stereo not drawn)
selectivity index (Toxoplasma gondii; Vero, RH; reference: CC50 over EC50): > 4

CC(=O)OC[C@H]1O[C@@H]([Se]C(C)=O)[C@H](OC(C)=O)[C@@H](OC(C)=O)[C@@H]1OC(C)=O
biosensor oxidation (Trypanosoma brucei brucei; flow cytometry; bloodstream form, hGrx1-roGFP2; EC50, 1 h; reference: diamide 500 µM maximum and minimum oxidation): 49%

CC(C)C[C@H](NC(=O)OCc1ccccc1)C(=O)N[C@@H](C[C@H]1CCNC1=O)C(=O)C(=O)NC1CC1
EC50 (Enterovirus D68; viral replication; WI-38; 37 °C): 80 ± 20 nM

Cc1cc(=O)oc2cc3c(c(C)c12)C(=O)c1c(O)cccc1C3=O
zone of inhibition (Bacillus cereus; MTCC 1306; 100 µg/disc): 8 mm

O=C(N[C@@H](CC1CCCCC1)C(=O)N[C@@H](C[C@H]1CCNC1=O)C(=O)C(=O)NC1CC1)OCc1cccc(Cl)c1
EC90 (Enterovirus D68; viral replication; WI-38): 130 nM

C[C@@H]1C(=O)O[C@@H](C)/C=C/C=C\[C@@H](C)[C@@H]2C=C[C@@H]3C[C@@]4(C)O[C@H]4[C@@H](C)[C@H]3[C@@H]2C(=O)C(Cl)(Cl)C1=O
MIC50 (Staphylococcus aureus; MSSA and MRSA clinical isolates): 0.05 µg/mL (≈ 0.101 µM)

CC(=O)OC[C@H]1O[C@@H]([Se][C@@H]2O[C@H](COC(C)=O)[C@H](OC(C)=O)[C@H](OC(C)=O)[C@H]2OC(C)=O)[C@H](OC(C)=O)[C@@H](OC(C)=O)[C@H]1OC(C)=O
viability (Trypanosoma brucei brucei; bloodstream form; 5 µM, 24 h, 1 % DMSO): 96.4 ± 17.7%

Cc1cc(O)c2c(c1)C(=O)c1cc3oc(=O)cc(C)c3c(O)c1C2=O
zone of inhibition (Bacillus cereus; MTCC 1306; 100 µg/disc): < 8 mm

Cc1cc(N2CCC(C#N)(C3(C)CC3)C2=O)cc(C(=O)NCc2cc(F)cc(-c3cnn(C)c3)c2)n1 (racemic)
IC50 (Plasmodium falciparum; intraerythrocytic growth, DAPI staining; 3D7; 72 h): 10 nM

Cc1ncccc1-c1ccc(C(=O)N2CC[C@H](C(=O)Nc3cc(F)c(F)c(F)c3)C2)[nH]1
HBV DNA remaining (hepatitis B virus; item: intracellular HBV DNA; HepG2.2.15; 1 µM, 144 h; reference: vehicle): 31%

COc1ccc(NC(=O)N2CCCN3CCC(c4ccc(C#CCc5ccccc5)cc4)C3C2)cc1 (stereo not drawn)
EC90 (Toxoplasma gondii; parasite growth; HFF, RH type I luciferase): > 10000 nM

Cc1ccc(S(=O)(=O)Nn2c3c(cc(-c4nc5ccccc5s4)c2=O)CCCC3)cc1
selectivity index (Coxsackievirus B4; viral replication, plaque reduction; BGM cells; reference: CC50 over IC50): 2.66

CC1(CCCCCCCCCCOCCCOP(=O)(O)CO[C@H](CO)Cn2ccc(N)nc2=O)COC1
selectivity index (human betaherpesvirus 5; cytopathic effect; AD169; reference: CC50 over EC50): > 714

O=C(Nc1ccccc1)N1CCCN2CCC(c3ccc(C#Cc4ccccc4)cc3)C2C1 (stereo not drawn)
EC90 (Toxoplasma gondii; parasite growth; HFF, RH type I luciferase): 4820 ± 130 nM

CCCCn1c2ccccc2c2ccnc(-c3ccccc3Cl)c21
viability (Echinococcus granulosus; eosin staining; sensu stricto protoscoleces; 40 µM, 48 h, 10% fetal bovine serum): 62.8 ± 5.9%

c1ccc(-c2nc(-c3ccc4ccccc4c3)c[nH]2)cc1
worm killing (Schistosoma mansoni; adult male worms; 50 µM): 0%

Cc1ccc(N(CCc2nnc(S)o2)S(=O)(=O)c2ccc(C)cc2)cc1
relative inhibition (Colletotrichum capsici; cup plate method; 100 µg/mL; reference: fluconazole): 224%

CN[C@H](CC(C)C)C(=O)N[C@H]1C(=O)N[C@@H](CC(N)=O)C(=O)N[C@H]2C(=O)N[C@H]3C(=O)N[C@H](C(=O)N[C@H](C(=O)O)c4cc(O)cc(O)c4-c4cc3ccc4O)[C@H](O)c3ccc(c(Cl)c3)Oc3cc2cc(c3O[C@@H]2O[C@H](CO)[C@@H](O)[C@H](O)[C@H]2O[C@H]2C[C@](C)(NCc3ccc(C(=O)OCCCCCCN(Cc4ccccn4)Cc4ccccn4)cc3)[C@H](O)[C@H](C)O2)Oc2ccc(cc2Cl)[C@H]1O
regulation factor (Bacillus subtilis; protein synthesis, item: LiaH.2; 168; concentration not given, 10 min, at peak effective concentration; reference: untreated): 131 ± 66

O=C(Nc1ccccc1)N1CCCN2CCC(c3ccc(C#Cc4cncnc4)cc3)C2C1 (stereo not drawn)
EC90 (Toxoplasma gondii; parasite growth; HFF, RH type I luciferase): > 10000 nM

Cc1ncc([N+](=O)[O-])n1CCOCc1nnc(SCC(=O)c2ccc([N+](=O)[O-])cc2)o1
inhibition zone diameter (Enterobacter cloacae; DMSO; 60 µg/mL, 24 h, 37 °C): 15 to 20 mm

COc1ccc(NC(=O)N2CCCN3CCC(c4ccc(C#CC(C)C)cc4)C3C2)cc1 (stereo not drawn)
EC90 (Toxoplasma gondii; parasite growth; HFF, RH type I luciferase): > 10000 nM

CC(C)C[C@H](NC(=O)OCc1cccc(Cl)c1)C(=O)N[C@@H](C[C@H]1CCNC1=O)C(=O)C(=O)NC1CC1
EC50 (Enterovirus D68; viral replication; WI-38; 37 °C): 90 ± 10 nM

N=C(NO)NN=Cc1nccc2ccccc12
inhibitory concentration (human mastadenovirus C; plaque reduction; A549, McEwen): < 100 µM

CCCCOC(=O)/C=C/c1ccc(OCCNS(=O)(=O)c2ccccc2F)c(OC)c1
EC50 (tobacco mosaic virus; inactivation activity, half-leaf method): 238 ± 5.5 µg/mL

CC(C)C[C@H](NC(=O)OCc1ccccc1)C(=O)N[C@H](C=O)C[C@H]1CCNC1=O
EC50 (human rhinovirus 51; viral replication; WI-38; 37 °C): 700 ± 280 nM

CC(C)c1ccc(Cn2ccc([C@H](C)[C@](O)(Cn3cnnn3)c3ccc(F)cc3F)n2)cc1
growth inhibition (Candida krusei; growth curve; 4946, YPD medium; 0.25 µg/mL): inhibited

O=C(Nc1ccc2c(c1)CN(c1ccc(Cl)c(Cl)c1)C2=O)N1CCN(c2ccc(Cl)cc2)CC1
IC50 (Trypanosoma brucei brucei; parasite growth, resazurin; Squib 427; 3 d): 6900 nM

Cc1cc(O)cc2c1C(=O)c1c(cc3oc(=O)cc(-c4ccc(Cl)cc4)c3c1O)C2=O
zone of inhibition (Bacillus cereus; MTCC 1306; 100 µg/disc): 8 mm

CCCCn1c2ccccc2c2ccnc(-c3ccc(OC)cc3)c21
viability (Echinococcus granulosus; eosin staining; sensu stricto protoscoleces; 40 µM, 48 h, 10% fetal bovine serum): 76.3 ± 1.82%

C#CCN1CCC23C(=C(C(=O)OC)CC(C(=O)OC)C12)Nc1ccccc13 (stereo not drawn)
inhibition (hepatitis B virus; rcDNA level; HuH7-NTCP; 5 µM): > 60%

Cc1ccc(NC(=O)N2CCCN3CCC(c4ccc(C#CC5CCCCC5)cc4)C3C2)cc1 (stereo not drawn)
EC90 (Toxoplasma gondii; parasite growth; HFF, RH type I luciferase): 1810 ± 410 nM

O=C[C@H](C[C@H]1CCNC1=O)NC(=O)[C@H](Cc1ccccc1)NC(=O)OCc1ccccc1
EC50 (Enterovirus D68; viral replication; WI-38; 37 °C): 80 ± 20 nM

Cc1ncncc1-c1ccc(C(=O)N2CC[C@H](C(=O)Nc3cc(F)c(F)c(F)c3)C2)[nH]1
HBV DNA remaining (hepatitis B virus; item: intracellular HBV DNA; HepG2.2.15; 0.1 µM, 144 h; reference: vehicle): 91%

Brc1ccc(-c2c[nH]c(-c3ccccn3)n2)cc1
worm killing (Schistosoma mansoni; female worms; 100 µM): 0%

COC1C=COC2(C)Oc3c(C)c(O)c4c(c3C2=O)C2=NC3(CCN(CC(C)C)CC3)NC2=C(NC(=O)C(C)=CC=CC(C)C(O)C(C)C(O)C(C)C(OC(=O)Nc2cnccn2)C1C)C4=O (stereo not drawn)
IC50 (Mycobacteroides abscessus; ATCC 19977; 1:1 CAMHB:human serum): 45 nM

CCN(CC)CC#CCNc1ccnc2cc(Cl)ccc12
IC50 ratio (Plasmodium falciparum; schizont maturation; field isolates; Albumax medium; reference: field isolates over 3D7): ~2 fold

C[C@@H]1C[C@H](Nc2ccccc2)c2cc(F)ccc2N1C(=O)c1ccc([N+](=O)[O-])cc1
logit mortality (Aedes albopictus; 1 µM, second-instar larvae): -0.28

CC(=O)[O-].O.O.O.O.[Mn+2].[O-]c1ccc(Br)cc1C=NCCN1CCOCC1
inhibition zone diameter (Bacillus cereus; 20 µL of 100 µM per disc): 17 mm

C[C@@H]1C[C@H](Nc2ccccc2)c2cc(F)ccc2N1C(=O)c1ccc(C(F)(F)F)c(F)c1
logit mortality (Aedes albopictus; 1 µM, second-instar larvae): 0.52

N=C(NO)NN=Cc1nccc2c([N+](=O)[O-])cccc12
inhibitory concentration (human mastadenovirus C; plaque reduction; A549, McEwen): < 100 µM

Fc1ccc2c(c1)c1nc3ccc(Br)cc3c-1cn2Cc1cn(-c2ccccc2I)nn1
fold change (Giardia duodenalis trophozoites; UHPLC-Q-TOF-MS, item: 3-methylbutyl pentadecanoate; IC50, 0.2617 h; reference: 0.25% DMSO): 5.77

C[C@@H]1C[C@H](Nc2ccccc2)c2cc(F)ccc2N1C(=O)c1ccc(Cl)c(F)c1
logit mortality (Aedes albopictus; 1 µM, second-instar larvae): 1.06

O=C(Nc1ccccc1)N1CCCN2CCC(c3ccc(C#Cc4cccnc4)cc3)C2C1 (stereo not drawn)
EC90 (Toxoplasma gondii; parasite growth; HFF, RH type I luciferase): 3870 nM

C#CCN1CCc2c(n(C(=C)C(=O)OC)c3ccccc23)C(C(=O)OC)C1 (stereo not drawn)
selectivity index (hepatitis B virus; HBsAg secretion; HepAD38; reference: CC50 over IC50): 9.48

O=C(Nc1ccccc1Nc1ccccc1)c1nccnc1Cl
inhibition (Sclerotinia sclerotiorum; microbial growth; 50 µg/mL): 32.9%

O=C(CCNC(=O)c1ccsc1)Nc1cccc(Oc2ccc(Cl)cc2)c1
precore mRNA level (hepatitis B virus; RT-qPCR; HepG2.2.15.7; 10 µM; reference: control): 0.84 fold

CCCCCCCCCC1CC2CCCC3CC(CCCCCCCCC)NC(=N1)N23 (stereo not drawn)
IC50 (Candida krusei; fungal growth; ATCC 6258): 1870 nM

C#CCN1CCc2c3n(c4ccccc24)C(=O)C(=C)C3(C(=O)OC)C1 (stereo not drawn)
selectivity index (hepatitis B virus; HBsAg secretion; HepAD38; reference: CC50 over IC50): 5.52

CCOC(=O)/C=C/c1ccc(OCCNS(=O)(=O)c2c(Cl)cccc2Cl)c(OC)c1
curative activity (tobacco mosaic virus; half-leaf method; tobacco; 500 µg/mL): 55.3 ± 2.9%

COc1ccc(NC(=O)N2CCCN3CCC(c4ccc(C#CC5CCCC5)cc4)C3C2)cc1 (stereo not drawn)
EC90 (Toxoplasma gondii; parasite growth, luciferase; HFF, RH type I luciferase): 1210 nM

CCCCCCCCCC1CC2CCC3CC(CCCCCCCCC)NC(=N1)N23 (stereo not drawn)
IC50 (Candida krusei; fungal growth; ATCC 6258): 2470 nM

O=C(NCc1ccccc1)N1CCCN2CCC(c3ccc(C#Cc4ccccc4)cc3)C2C1 (stereo not drawn)
EC90 (Toxoplasma gondii; parasite growth; HFF, RH type I luciferase): 4630 ± 80 nM

Cc1ccc(C(=O)N2c3ccc(F)cc3[C@@H](Nc3ccccc3)C[C@H]2C)cc1
logit mortality (Aedes albopictus; 1 µM, second-instar larvae): 0.7

Excerpt of the above:
CC(=O)OC[C@H]1O[C@@H]([Se]C(C)=O)[C@H](OC(C)=O)[C@@H](OC(C)=O)[C@@H]1OC(C)=O
biosensor oxidation (Trypanosoma brucei brucei; flow cytometry; bloodstream form, hGrx1-roGFP2; EC50, 1 h; reference: diamide 500 µM maximum and minimum oxidation): 49%

CC(C)C[C@H](NC(=O)OCc1ccccc1)C(=O)N[C@@H](C[C@H]1CCNC1=O)C(=O)C(=O)NC1CC1
EC50 (Enterovirus D68; viral replication; WI-38; 37 °C): 80 ± 20 nM

Cc1cc(=O)oc2cc3c(c(C)c12)C(=O)c1c(O)cccc1C3=O
zone of inhibition (Bacillus cereus; MTCC 1306; 100 µg/disc): 8 mm

O=C(N[C@@H](CC1CCCCC1)C(=O)N[C@@H](C[C@H]1CCNC1=O)C(=O)C(=O)NC1CC1)OCc1cccc(Cl)c1
EC90 (Enterovirus D68; viral replication; WI-38): 130 nM

C[C@@H]1C(=O)O[C@@H](C)/C=C/C=C\[C@@H](C)[C@@H]2C=C[C@@H]3C[C@@]4(C)O[C@H]4[C@@H](C)[C@H]3[C@@H]2C(=O)C(Cl)(Cl)C1=O
MIC50 (Staphylococcus aureus; MSSA and MRSA clinical isolates): 0.05 µg/mL (≈ 0.101 µM)

CC(=O)OC[C@H]1O[C@@H]([Se][C@@H]2O[C@H](COC(C)=O)[C@H](OC(C)=O)[C@H](OC(C)=O)[C@H]2OC(C)=O)[C@H](OC(C)=O)[C@@H](OC(C)=O)[C@H]1OC(C)=O
viability (Trypanosoma brucei brucei; bloodstream form; 5 µM, 24 h, 1 % DMSO): 96.4 ± 17.7%

Cc1cc(O)c2c(c1)C(=O)c1cc3oc(=O)cc(C)c3c(O)c1C2=O
zone of inhibition (Bacillus cereus; MTCC 1306; 100 µg/disc): < 8 mm

Cc1cc(N2CCC(C#N)(C3(C)CC3)C2=O)cc(C(=O)NCc2cc(F)cc(-c3cnn(C)c3)c2)n1 (racemic)
IC50 (Plasmodium falciparum; intraerythrocytic growth, DAPI staining; 3D7; 72 h): 10 nM
